Experimental data gathered from unrelated publications.
Compare with care: the assays were run in different laboratories. Where no end group is shown, it is not given here.

| Molecule | tested on | assay | test system | setting | how to read | measurement | value |
| --- | --- | --- | --- | --- | --- | --- | --- |
| O=C(NCC1CCNCC1)c1cc2ccc(-c3cn[nH]c3)cc2[nH]1 | Zika virus | viral replication | U-87 MG, FLR | 10 µM | – | inhibition | < 68% |
| VDHVFLRF-NH2 (C-amide) | Drosophila melanogaster | heart rate | adult heart | 40 nL injected, 1 µM, 10 min | reference: DMS | inhibition | 68% |
| OCCCn1c(Cl)nc2ccccc21 | Human immunodeficiency virus 1 | viral replication, inhibitor | TZM-bl | 1 µg/mL | – | inhibition | 1.02% |
| HVFLRF-NH2 (C-amide) | Drosophila melanogaster | gut contraction | adult gut | 1 µM, within 10 min | reference: DMS effect | inhibition | 49% |
| OCCn1c(Cl)nc2cc(Br)c(Br)cc21 | Human immunodeficiency virus 1 | viral replication, inhibitor | TZM-bl | 2.5 µg/mL | – | inhibition | 65.7% |
| CNCC(=O)N[C@@H](CO)C(=O)N[C@H]1[C@H](O)[C@@H](O)[C@H](n2ccc(N)nc2=O)O[C@@H]1C(N)=O | Cucumber mosaic virus | inactivation activity | host plant | 500 µg/mL | – | inhibition | 74.2% |
| CC(=O)OC[C@]12Oc3c(-c4ccc(O)c5c4O[C@@]4(COC(C)=O)C(=C(O)C[C@@H](C)[C@H]4OC(C)=O)C5=O)ccc(O)c3C(=O)C1=C(O)C[C@@H](C)[C@H]2OC(C)=O | Phyllosticta citricarpa | fungal growth | – | 10000 µg/mL, 504 h | – | inhibition | 65.7% |
| O=C(NCc1ccc(F)c(Cl)c1)c1nc(Cl)c2cccnc2c1O | Human betaherpesvirus 5 | viral replication, inhibitor | HFF | 10 µM | – | inhibition | 6.8% |
| OCCCn1c(Cl)nc2cc(Br)c(Br)cc21 | Human immunodeficiency virus 1 | viral replication, inhibitor | TZM-bl | 1 µg/mL | – | inhibition | -0.63% |
| DVDHVFLRF-NH2 (C-amide) | Drosophila melanogaster | heart rate | wandering third instar larval heart | 40 nL injected, 1 µM, 10 min | reference: DMS | inhibition | 127% |
| O=[N+]([O-])c1cc2nc(Cl)n(CCO)c2cc1[N+](=O)[O-] | Human immunodeficiency virus 1 | viral replication, inhibitor | TZM-bl | 1 µg/mL | – | inhibition | -3.95% |
| CN[C@@](C)(C[18F])C(=O)O | – | – | mouse, muscle | 1 h, tumour-bearing | – | tracer uptake | 1.4 %ID/g |
| C=C1[C@H](CO)[C@@H](O)C[C@@H]1n1cnc2c(=O)[nH]c(N)nc21 | Hepatitis B virus | HBV DNA production | HepG2.2.15, wild type | 10 µM, 11 d exposure then 14 d without compound | – | inhibition | ~40% |
| TDVDHVFLRA-NH2 (C-amide) | Drosophila melanogaster | gut contraction | wandering third instar larval gut | injection, 1 µM, within 10 min | reference: DMS effect | inhibition | 26% |
| O=C(NCc1ccc(F)cc1)c1nc(-c2cccc(Cl)c2)c2cccnc2c1O | Human betaherpesvirus 5 | viral replication, inhibitor | HFF | 10 µM | – | inhibition | 77% |
| O=C(NCC1CCNCC1)c1cc2ccc(-c3ccoc3)cc2[nH]1 | Zika virus | viral replication | U-87 MG, FLR | 10 µM | – | inhibition | 99% |
| O=[N+]([O-])c1cc2nc(Cl)n(CCCO)c2cc1[N+](=O)[O-] | Human immunodeficiency virus 1 | viral replication, inhibitor | TZM-bl | 10 µg/mL | – | inhibition | 0.11% |
| DHVFLRF-NH2 (C-amide) | Drosophila melanogaster | gut contraction | adult gut | 1 µM, within 10 min | reference: DMS effect | inhibition | 87% |
| O=[N+]([O-])c1ccc2c(c1)nc(Cl)n2CCCO | Human immunodeficiency virus 1 | viral replication, inhibitor | TZM-bl | 1 µg/mL | – | inhibition | -0.47% |
| O=C(NCc1ccc(F)cc1)c1nc(-c2ccccc2F)c2cccnc2c1O | Human betaherpesvirus 5 | viral replication, inhibitor | HFF | 10 µM | – | inhibition | 74% |
| TAVDHVFLRF-NH2 (C-amide) | Drosophila melanogaster | gut contraction | wandering third instar larval gut | injection, 1 µM, within 10 min | reference: DMS effect | inhibition | 32% |

A few entries again:
| Molecule | tested on | assay | test system | setting | how to read | measurement | value |
| --- | --- | --- | --- | --- | --- | --- | --- |
| O=C(NCc1ccc(F)c(Cl)c1)c1nc(Cl)c2cccnc2c1O | Human betaherpesvirus 5 | viral replication, inhibitor | HFF | 10 µM | – | inhibition | 6.8% |
| OCCCn1c(Cl)nc2cc(Br)c(Br)cc21 | Human immunodeficiency virus 1 | viral replication, inhibitor | TZM-bl | 1 µg/mL | – | inhibition | -0.63% |
| DVDHVFLRF-NH2 (C-amide) | Drosophila melanogaster | heart rate | wandering third instar larval heart | 40 nL injected, 1 µM, 10 min | reference: DMS | inhibition | 127% |
